Experimental data pooled from the literature.
Parts stem from different laboratories: compare values within a part only.

Set 1 — technique: protein-binding microarray; form: double-stranded DNA, one strand shown; medium: in vitro; tested at: 0.8 µM; setting: whole 60-bp probe, no competitor; reading: higher = stronger binding; shared flanks, not repeated: … GTCTTGATTCGCTTGACGCTGCTG
Target: Centromere-binding protein 1, full length, N-terminal tag (CBF1, Saccharomyces cerevisiae, UniProt P17106, residues 1-351)
UniProt P17106, sequence (whole entry, looked up): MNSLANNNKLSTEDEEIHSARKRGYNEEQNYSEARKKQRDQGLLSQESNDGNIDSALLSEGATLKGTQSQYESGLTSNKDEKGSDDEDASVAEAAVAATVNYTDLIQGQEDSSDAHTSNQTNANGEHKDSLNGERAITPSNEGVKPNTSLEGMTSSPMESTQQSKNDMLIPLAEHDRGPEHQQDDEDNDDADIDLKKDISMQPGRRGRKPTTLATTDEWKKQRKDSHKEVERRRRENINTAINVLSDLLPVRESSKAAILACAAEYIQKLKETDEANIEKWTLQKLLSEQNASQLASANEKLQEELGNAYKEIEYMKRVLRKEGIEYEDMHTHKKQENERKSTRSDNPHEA
| Sequence | fluorescence intensity |
| --- | --- |
| CTACATTTTGCATAACACACGTTAACCAATATATTC | 550 a.u. |
| GAATCTTAATTGTGTTATCACCTGCTATTTTTCTAG | 1250 a.u. |
| CTAAATTTTTACACTGGTGACAACCTTAATGGTTTC | 515 a.u. |
| GAATATCAAGCAGATCTGGTGAAATTTTAAACATAG | 502 a.u. |
| GAATAGAAGGGAAATCATATGAAAGAAAAGAAGTAG | 505 a.u. |
| CCTAACTACTATAATCATGTAACATAGCTTCGTACA | 541 a.u. |
| CTAATTTAGAATCAATAGGTGATGTCCACCCGGTTC | 519 a.u. |
| CTAAATATACATATTCACGGGATACTAGGAGGTTTC | 598 a.u. |
| GAAGGTACTCATTATACCGTGATTACCAATTTCTAG | 677 a.u. |
| CTACTTTATGGTCAGCACGTATCGCTTCATATATTC | 592 a.u. |
| GAACTTCCCCTTTTAAACATGACTGAATTTTGGTAG | 538 a.u. |
| CTATGCATTATTCATCATGTGGTCCAAAGCTTTTTC | 1850 a.u. |
| GAAATGTAAAGCGCGCACGTAGTAAGTGACGAGTAG | 550 a.u. |
| GAAGCCAGCGATCCCCGCGTGTCCTGCCCCTGATAG | 500 a.u. |
| CTACTATTCTAAAATCACGTATATTGTGTATGTTTC | 595 a.u. |
| CTAGCAAATAATATCCTCGTGACCTCGAGGCTTTTC | 3620 a.u. |
| GAAAGCATAAACTATCACGTTGAAGATAGCATATAG | 780 a.u. |
| GAATAGTATTAAAAAAACGTGTATACGTTATTGTAG | 696 a.u. |
| GAAAATGAACACTCTCATGTGATTAAAATGTATTAG | 1560 a.u. |

Set 2 — technique: universal PBM; form: double-stranded DNA, one strand shown; medium: in vitro; tested at: not given; reading: higher = stronger binding
Target: Sal-like protein 4, full length isoform B (SALL4, Homo sapiens, UniProt Q9UJQ4-2, residues 1-616)
Setting: 8-mer, flanks averaged, mean of replicates
Residues (chain): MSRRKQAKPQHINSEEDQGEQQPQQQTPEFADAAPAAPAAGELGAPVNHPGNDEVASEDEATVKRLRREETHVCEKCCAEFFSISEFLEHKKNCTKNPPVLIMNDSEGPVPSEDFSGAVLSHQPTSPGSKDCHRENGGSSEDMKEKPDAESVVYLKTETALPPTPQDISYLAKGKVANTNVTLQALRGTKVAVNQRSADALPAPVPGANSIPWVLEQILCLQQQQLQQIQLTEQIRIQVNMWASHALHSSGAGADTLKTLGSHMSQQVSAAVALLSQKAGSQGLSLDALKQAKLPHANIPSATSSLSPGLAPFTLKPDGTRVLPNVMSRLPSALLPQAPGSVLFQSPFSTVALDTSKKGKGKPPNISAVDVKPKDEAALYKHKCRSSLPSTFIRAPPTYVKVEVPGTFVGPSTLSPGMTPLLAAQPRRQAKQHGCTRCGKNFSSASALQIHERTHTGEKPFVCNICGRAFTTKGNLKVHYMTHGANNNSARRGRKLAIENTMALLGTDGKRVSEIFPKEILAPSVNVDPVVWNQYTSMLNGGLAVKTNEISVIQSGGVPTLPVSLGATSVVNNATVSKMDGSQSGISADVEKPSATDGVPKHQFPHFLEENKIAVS
| Sequence | E-score |
| --- | --- |
| ATGCAGGA | -0.0384 |
| ATCGAGGA | -0.00501 |
| GCAGAGCA | -0.0974 |
| GCTGACCA | -0.281 |
| GTAATTAA | 0.307 |
| CCTTAAAA | 0.245 |
| ACTCTGTA | 0.0987 |
| GTGATGCA | 0.132 |
| ATTGAGGC | 0.0483 |
| CCCACAGC | -0.142 |
| AGAAAGCC | -0.0977 |
| CTTGTACA | 0.138 |
| AATTGTCC | 0.123 |
| CGCGGGCC | -0.364 |
| CTCGGTCA | -0.0929 |
| CCGCTAGC | -0.277 |
| AGATCAAA | 0.0119 |
| CAGCTCGA | -0.264 |
| CACTCAGG | -0.175 |
| ACTATGGG | -0.0863 |
| CTTCGGGC | -0.209 |
| TAACGACA | 0.142 |
| CAACTTTC | 0.104 |
| CTTAAAAC | 0.0679 |
| GTAACTTA | 0.222 |

Set 3 — technique: RNA Bind-n-Seq; form: RNA; medium: in vitro; tested at: 365 nM; baseline: no-protein control; reading: higher = stronger binding
Target: RNA binding protein fox-1 homolog 2, RRM domain, GST-SBP tag (RBFOX2, Homo sapiens, UniProt O43251-10, residues 100-194)
Setting: natural RNA segment, single round, ends assumed
Shared flanks, not repeated: GGGAGUUCUACAGUCCGACGAUC … UGGAAUUCUCGGGUGCCAA
Target sequence (chain): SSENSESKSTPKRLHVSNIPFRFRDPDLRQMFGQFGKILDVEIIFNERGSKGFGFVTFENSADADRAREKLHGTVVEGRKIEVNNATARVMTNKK
| Sequence | RBNS enrichment (R) |
| --- | --- |
| CCUAGUAGCAUGCAACCCAUGACUGUUUACUUCCCUAAAAGGGUUAGGUCUGUGUCCUGCACAGUGUUCAAAACCAUUAAAUGUGUUCUUUGUAGCAGGAUGGUACACAG | 12 |
| CUGGACAGAGCCAGCCUGAGGCCCACGGGCAGCUGCCUGUUUGCAUGCCUGGGAAGAGGUCCUCAGUGUGAGUUGGGGUCAAACUUGGGCUCCAAGCUGCUUGAGGGGGU | 4.48 |
| GGAUUAACAGCCAUUUAUAUGGACUUAUGUCUCUUAAUGCACAAAGAAGCAGAUAUCUCGAAGGAGCUUACACAAGAACCACAAUUACUAGAUCAUGAUAUACUUGGAAA | 0.44 |
| GACUUUUGGGGAUAGAUCUGUCUGGGAGAUAAUGUGAGUCCAGGAGGCAUUACUCUUCCCUGCCUCACAUCAAGGUGCCAUUCAGGUAGUUGGCUCCCAGCUACUUAACG | 0.282 |
| AAAAUUAUGUUGUAGAAAAAAAAUCAACCUCUCCCAGGUGCAUUAAGAAAUAAGAAUUCCCAGGGUUACUCACCCAUGCGUAAGCUACCCAAGUUUAAUUUGGUAGCUGA | 0.531 |
| UGAAGCAGCCAGGGUCUCCUUGCCCUGGCCUUGGCCUUCCCUAGACUGUGUGGGGCUCAGCAUUGGGAGGGGUUGCACAUGUCCCAGCCUUUGGCCCCCUUACUUUUCAG | 2.49 |
| CCCAGCACACUCCCUGUGGGAUGGCCGCUGCUCAGGACACAGUGGGACAAAGUUGGGUUGAUAGGAUAUUUUAGAUUCAUUUUACCUUUGACAAGGGCAGGCCUUGAAUU | 0.491 |
| UGUUGCAGGCAACGGCUACAGCUUUAUUAGUGGUUACCUAACUGUGGUCUUCUUGGGCCAAGCAAUUUCUUUAAAGGAAAAGUUAGCAUUAUGUUUGUGGGGUGCCAGGG | 0.747 |

Set 4 — technique: RNA Bind-n-Seq; form: RNA; medium: in vitro; tested at: 1 µM; setting: whole 134-nt RNA, ends assumed; with: 150 mM KCl; baseline: input library; reading: higher = stronger binding
Target: Ras GTPase-activating protein-binding protein 1, RRM domain (G3BP1, Homo sapiens, UniProt Q13283)
UniProt Q13283, sequence (whole entry, looked up): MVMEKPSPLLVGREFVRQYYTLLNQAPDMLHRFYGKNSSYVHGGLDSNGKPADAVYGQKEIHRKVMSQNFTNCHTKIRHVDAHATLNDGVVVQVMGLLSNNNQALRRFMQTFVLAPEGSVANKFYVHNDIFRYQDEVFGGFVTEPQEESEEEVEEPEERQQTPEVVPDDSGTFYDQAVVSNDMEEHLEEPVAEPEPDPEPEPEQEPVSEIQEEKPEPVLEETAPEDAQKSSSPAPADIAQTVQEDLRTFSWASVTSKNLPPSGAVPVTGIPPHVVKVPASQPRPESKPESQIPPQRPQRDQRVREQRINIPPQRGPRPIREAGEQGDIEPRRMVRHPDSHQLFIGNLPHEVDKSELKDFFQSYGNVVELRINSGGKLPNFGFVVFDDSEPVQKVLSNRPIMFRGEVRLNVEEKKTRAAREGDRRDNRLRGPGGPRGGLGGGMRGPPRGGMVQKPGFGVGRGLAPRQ
Shared flanks, not repeated: GGGAGUUCUACAGUCCGACGAUC … UGGAAUUCUCGGGUGUCAAGG
| Sequence | log2 enrichment |
| --- | --- |
| ACCAUGCAGGUGGGCAUCUUUGGGAAGUGGGGCAAGGUGGGGAUAGGGAGGGGGGUAACACUUUGGGAACAGGUGGUCCCAGGUCGUUUC | -0.409 |
| AAGUCCUGUGCUACACAUCGUAUGUACCGAAUCGGGGUUUGGGGAAAGGGGUGGGGAAAGUAUUAUGUUACGCCGUUCGGAUCUGCACUU | 0.972 |
| UCCUGUGCUACACAUCGUAUGUACCGAAUCGGGAAAAAAAGGGUUUUUUUGGGUUUGGGAAAGUAUUAUGUUACGCCGUUCGGAUCUGCA | -0.198 |
| UUUCCCCUGGAGGGCGCCUCCAUCCUUGGAGGCCUAGUGCCGUCGGAGAGAGAGCGGGAGCCGCGGACAGAGACGCGUGCGCAAUUCGGA | -1.43 |
| GCAGGAAGUAAAAACAAAUGGAAAUGCUUCGGAUAGUGGCAGGGGUGGGAGUUGCUAAGGAAAGGGUGGGAUGGGAGUGGGUAAAGAGUU | 2.07 |
| ACCAUGCAGGUGGGCAUCUUUGGGAAGUGGGGCAAGAGGGGGAUAGGGAGGGGGGUAACACUUUGGGAACAGGUGGUCCCAGGUCGUUUC | -0.357 |
| CCUGUGCUACACAUCGUAUGUACCGAAUCGGGCCCCCCGGGGCCCCCCGGGGCCCCCCGGAAAGUAUUAUGUUACGCCGUUCGGAUCUGC | -0.653 |
| AGUCCUGUGCUACACAUCGUAUGUACCGAAUCGGUUUUUGGUUUUUGGGGUUUUUGGGAAAGUAUUAUGUUACGCCGUUCGGAUCUGCAC | -0.026 |
| CUCAAGUCCUGUGCUACACAUCGUAUGUACCGAAUCGGAAAAAGGUGGAAAGGAAAGUAUUAUGUUACGCCGUUCGGAUCUGCACUUCCA | -0.133 |

Repeated from above (set 2):
| Sequence | E-score |
| --- | --- |
| ATTGAGGC | 0.0483 |
| CCCACAGC | -0.142 |
| AGAAAGCC | -0.0977 |
| CTTGTACA | 0.138 |
| AATTGTCC | 0.123 |
| CGCGGGCC | -0.364 |
| CTCGGTCA | -0.0929 |
| CCGCTAGC | -0.277 |
| AGATCAAA | 0.0119 |
